Experimental data from different studies.
Each line is one published result; not all experiments were run side by side. ± gives the spread as reported.

`C=CCC1=C[C@]2(C[C@H](O)C(C)(C)O2)C2=C(C[C@H]3C[C@@H]4[C@@H](C[C@@]3(C)O2)C(=C)CCCC4(C)C)C1=O` gave a selectivity index of 2.2 (coxsackievirus B3; cytopathic effect; Vero, Nancy; relative to: CC50 over IC50).
The viability of `N#Cc1ccc(-c2ccc(-c3ccco3)o2)nc1` is reported as about 40% (Salmonella typhimurium; OD; TA1535, liquid broth; 12.5 µM, 15 h).
`Cc1cc(C#N)cc(C)c1Oc1nc(NC2CCN(Cc3ccc(S(C)(=O)=O)cc3)CC2)nc2cccnc12` has a selectivity index of 18000 (HIV-1; TZM-bl, NL4-3 wild type; relative to: CC50 over EC50).
`N=C(N)c1ccc(-c2ccc(-c3cccs3)s2)cc1` has a viability of 80.4 ± 3.1% (Salmonella typhimurium; liquid broth OD; TA1535; 25 µM, 15 h; relative to: growth).
For `C=CCC1=C[C@@]2(C[C@@H](O)C(C)(C)O2)C2=C(C[C@H]3C[C@@H]4C(=C)CCCC(C)(C)[C@H]4C[C@@]3(C)O2)C1=O`, the selectivity index was 3 (coxsackievirus B3; cytopathic effect; Vero, Nancy; relative to: CC50 over IC50).
With `Cc1cc(C#N)cc(C)c1Oc1nc(NC2CCN(Cc3cccc(Cl)c3)CC2)nc2ccccc12` the selectivity index was over 9.92 (HIV-1; TZM-bl, NL4-3 wild type; relative to: CC50 over EC50).
The conversion of `CC12CC(O)C3CC1(OC1OC(CO)C(O)C(O)C1O)C3(COC(=O)c1ccccc1)C(=O)O2` (stereo not drawn) is reported as 74.5% (Bifidobacterium breve; rat gut microbiota; 12 h, anaerobic, SD rat microbiota 100%).
For `N=C(N)c1ccc(-c2ccc(-c3ccco3)o2)nc1`, the viability was 94.8 ± 4.8% (Salmonella typhimurium; liquid broth OD; TA1535; 100 µM, 15 h; relative to: growth).
With `Cc1cc(C#N)cc(C)c1Oc1nc(NC2CCN(Cc3ccc(S(C)(=O)=O)cc3)CC2)nc2ncccc12` the selectivity index was 23400 (HIV-1; TZM-bl, NL4-3 wild type; relative to: CC50 over EC50).

Excerpt of the above:
`Cc1cc(C#N)cc(C)c1Oc1nc(NC2CCN(Cc3ccc(S(C)(=O)=O)cc3)CC2)nc2cccnc12` has a selectivity index of 18000 (HIV-1; TZM-bl, NL4-3 wild type; relative to: CC50 over EC50).
